Measurements from different studies.
Parts stem from different laboratories: compare values within a part only. Substitutions count along the parent as printed.

Study 1 — technique: RNA Bind-n-Seq; molecule type: RNA; sample: in vitro; tested at: 365 nM; baseline: no-protein control; direction: higher = stronger binding
Target: RNA binding protein fox-1 homolog 2, RRM domain, GST-SBP tag (RBFOX2, Homo sapiens, UniProt O43251-10, residues 100-194)
Notes: natural RNA segment, single round, ends assumed
Construct (chain): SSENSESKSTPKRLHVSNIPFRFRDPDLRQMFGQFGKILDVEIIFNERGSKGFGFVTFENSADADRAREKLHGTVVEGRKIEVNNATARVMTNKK
| Sequence | RBNS enrichment (R) |
| --- | --- |
| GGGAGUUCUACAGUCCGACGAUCUGCCAUUUCGUGUCUGUGGUAACAAAGUGACUUGUAAAAUGGUGGAUGUUUCCCUCACUGUGUUCUCUUCGUGGGUUGUUUCCUUGUGGGUCAUAGUCAUACCUUCUGAUUGGAAUUCUCGGGUGCCAA | 0.256 |
| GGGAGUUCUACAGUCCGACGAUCAACUUCCCAGCACCUGGACAUCUCUUCCAGAGUUAUCCCACUGGCUUGGUGUGUAUACAUUAGGGGAGGAUAAUCUGAUGCUAACUUUUUUUUUCUCUUUGGUUCUUGAAUGGAAUUCUCGGGUGCCAA | 0.686 |
| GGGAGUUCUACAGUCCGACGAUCUAAUCAAAAGCUCAUUUCACAAGCAGAAAAAGGCGACAAGUUAAUUAAAGCAAGGAAAAGUGUCACUGAAACAUAAACUGCACCUUAUUGUUUUAUAUUUUUGUACAGAUUGGAAUUCUCGGGUGCCAA | 0.34 |
| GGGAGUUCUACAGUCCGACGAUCACGUAAUUCCUGUUUUCAUGGGUCCUGUAGAUGUUUGAGUCAGGAAGGUAAGGCGGGGAGUGACUGAAUAAACUCUGCCUUUUAAAUUGAGCAUCUGGGCCGGGCAUGGUUGGAAUUCUCGGGUGCCAA | 6.45 |
| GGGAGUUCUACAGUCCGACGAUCUGGGGAGGGGUGUUUGAUUUCAUAAUGCCAAAACUUAACCUAUUGAAUGAAUUACAGUUUUUAUUACGGAAUCUCGCCGCUACCCCUGUUCCCCUCCUGUGUCCUUUUUCUGGAAUUCUCGGGUGCCAA | 0.503 |
| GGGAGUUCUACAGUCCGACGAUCAUAUUUUGUAUUUUCACCUUUAUAAACAUGAAUCCUCAGGGGUGAAGAACUGUUUGCAUAAUUUUCUGAAUUUUGAGCACUUUGUGCUAUAUAAGGACCCAUAUUUAAGCUGGAAUUCUCGGGUGCCAA | 1.32 |
| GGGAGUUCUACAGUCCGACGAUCACCACAGUCCAUAAUAUAUCAGGAUCUGGCAAGCUUAAGGAACCCAGCUCUUAGAAAUUUCUCUUCUUCUACACUUGUUGCUCUCACCAGUGAAACGCUUUGUAAGGAGGUGGAAUUCUCGGGUGCCAA | 0.4 |
| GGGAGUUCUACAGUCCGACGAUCAUGGACUUGAGGUCCCAGGAGAUUUCAUUUUAUUCACCCUGGUCAGAUACAAUAAAGGCUAUGAGUAUAAAUACAUAACUUCCUAACCAGGUGUAGGGCAUGUUCAUGAAUGGAAUUCUCGGGUGCCAA | 16.6 |
| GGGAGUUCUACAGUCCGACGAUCGAGUGAAUUUUUGCCAGUCUUGUGAGCAGAUGUACCUGAUGUAUUCUCAAUGUUCCAAGAGGUUCUGGCCUUCAGGGUCACAGGCAGUAGGGGGACAGCAUAAGGUCUAUUGGAAUUCUCGGGUGCCAA | 0.838 |
| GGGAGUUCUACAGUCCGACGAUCGGUGACUCAGCCCUGAUCCCGCCUCAUCUCGCUGCUCCGUGCUGCACUAGCAUCCAGAGUCAGAGUUGGUCUGGUGGCUCCAGCCCCACGUGGUAGGCUCCACACUGGGCUGGAAUUCUCGGGUGCCAA | 0.231 |
| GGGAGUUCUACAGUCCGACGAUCUUGUAUACAUAUAUCCUAAUACAAGAGUAGGAUAAGGUGGAAAUGUAAUGGCCUGAGGGAUGGUGAAGCAUUCUUUUAGUAUUUUUCAUCAUGUUGGGCUCCUAGAUUGUUGGAAUUCUCGGGUGCCAA | 0.543 |
| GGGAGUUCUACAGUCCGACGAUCUUUUGUACUAAAUCUUCAAAUAUUGUCUACUGUGUCAGGCAGAAACCGUUCUUAUCACGAGAAAGCACUUUGUUUCCAGGGUGACGAGUCCCGCGGAGCAUGCACACCUUUGGAAUUCUCGGGUGCCAA | 18.4 |

Study 2 — technique: DHFR PCA, deep sequencing; sample: yeast; together with: (+)-ABA 0 µM; baseline: wild-type fitted maximum; direction: higher = stronger binding
Target: ABI1, truncated, D143A, DHFR fusion (Arabidopsis thaliana)
Notes: methotrexate growth selection, single substitutions
Starting sequence: PYL1, truncated, DHFR fusion (Arabidopsis thaliana); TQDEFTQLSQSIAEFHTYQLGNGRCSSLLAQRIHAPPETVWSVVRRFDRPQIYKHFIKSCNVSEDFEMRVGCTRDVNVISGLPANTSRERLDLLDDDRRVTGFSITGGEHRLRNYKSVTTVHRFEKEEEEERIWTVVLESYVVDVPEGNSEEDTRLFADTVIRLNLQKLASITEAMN
| Variant | relative binding score [%] |
| --- | --- |
| S80F | 57.7 |
| V143A | 6.57 |
| T173I | 0.161 |
| Q7S | 26.9 |
| F124L | 34.7 |
| L20Q | 28.5 |
| G148T | -1.61 |
| Q167E | 36.6 |
| P83S | 25.5 |
| E130D | 30.6 |
| S27W | 0.421 |
| C60I | 7.33 |
| T160V | -2.12 |
| T154E | -9.16 |
| F157S | 1.41 |
| G23H | 11.5 |
| I57R | 2.33 |
| T73S | 2.15 |

Study 3 — technique: protein binding microarray; molecule type: double-stranded DNA, one strand shown; sample: in vitro; tested at: not given; baseline: not given; direction: higher = stronger binding
Target: Histone acetyltransferase KAT6A, winged helix 2, GST fusion (KAT6A, Homo sapiens, UniProt Q92794, residues 85-181)
Notes: 8-mer, flanks averaged, mean of 2 arrays, mostly near background
Construct (chain): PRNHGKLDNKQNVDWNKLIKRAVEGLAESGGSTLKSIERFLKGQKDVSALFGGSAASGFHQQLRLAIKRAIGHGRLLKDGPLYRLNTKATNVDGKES
| Sequence | E-score |
| --- | --- |
| CCACGTGA | -0.175 |
| CCAGTTCA | -0.102 |
| ATTATTTA | 0.214 |
| AGCCTATC | -0.116 |
| AATTCAGG | 0.105 |
| GCCGAGGA | 0.14 |
| CCTGTTCC | 0.0245 |
| GGAATGAA | 0.0338 |
| TCATCAGA | 0.0328 |
| GCGAGCTA | 0.0533 |
| ACGTAGAT | -0.163 |
| ATGGACAT | -0.0633 |
| TACTACCA | -0.155 |
| AGGCGAAG | 0.0674 |
| CGGCAGAC | 0.0637 |
| AACCTTCG | 0.12 |
| CTTACGGC | 0.00939 |
| ACTCTGGG | 0.13 |
| ACTAGGCC | -0.14 |
| AGTTTCGG | 0.135 |
| ACATATCG | -0.136 |
| CAGTACTG | 0.0994 |
| ATTTGGCG | 0.00724 |
| TTCGAGAA | -0.01 |
| CGCCTTTA | 0.172 |

Study 4 — technique: RNA Bind-n-Seq; molecule type: RNA; sample: in vitro; tested at: 20 nM; notes: 6-mer, flanks averaged, single round; together with: 150 mM KCl; baseline: input library; direction: higher = stronger binding
Target: TAR DNA-binding protein 43, full length, His tag (TARDBP, Homo sapiens, UniProt Q13148, residues 1-414)
| Sequence | 6-mer enrichment (R) |
| --- | --- |
| UGGGCG | 4.23 |
| UCAUCU | 0.524 |
| UCGUUC | 0.541 |
| ACAUGA | 0.673 |
| AGCCAA | 0.711 |
| GCUUAG | 0.838 |
| GGGGUG | 7.34 |
| UACCGA | 0.632 |
| UGCCGG | 1.41 |
| GACAUU | 0.647 |
| GCCCCA | 0.7 |
| AUUAGU | 0.628 |
| GAGCCG | 1.42 |
| CUCCUG | 0.628 |
| CUUACG | 0.628 |
| CACCAU | 0.683 |
| ACACUU | 0.604 |
| UGCACC | 0.723 |
| GGGCUG | 3.7 |
| CUUUAU | 0.605 |
| GCACCU | 0.714 |
| UUCAAC | 0.548 |
| ACCUCA | 0.594 |
| UACGCC | 0.643 |

Study 5 — target: CCND1, cyclin fold, Cln2 fusion (human); technique: yeast growth competition, sequencing; sample: yeast; notes: strong parent motif; baseline: not given; direction: higher = stronger binding
Starting sequence: PKN2 docking peptide (human); VSAVRKLDFSDTM
| Variant | normalised enrichment score |
| --- | --- |
| VSAVRKLDFSDSM [T12S] | 5.36 |
| VSAVRWLDFSDTM [K6W] | 2.63 |
| VSAVRKLFFSDTM [D8F] | 1.26 |
| VSAVRKLDFSLTM [D11L] | 4.77 |
| VSAVRKLDFFDTM [S10F] | 3.17 |
| VSAVRKYDFSDTM [L7Y] | 0.38 |
| VSAVRKLDASDTM [F9A] | -0.0416 |
| VSAVRKLDFSHTM [D11H] | 3.72 |
| VSIVRKLDFSDTM [A3I] | 2.54 |
| VSAVHKLDFSDTM [R5H] | 0.698 |
| VWAVRKLDFSDTM [S2W] | 2.98 |
| VSAVRKIDFSDTM [L7I] | 5.51 |
| VSAVRKLDFSDDM [T12D] | 5.54 |
| VSMVRKLDFSDTM [A3M] | 0.45 |
| VSAVRKADFSDTM [L7A] | 0.127 |
| VSAVRHLDFSDTM [K6H] | 3.01 |
| VSSVRKLDFSDTM [A3S] | 2.42 |
| VSAVRKLDFSDYM [T12Y] | 5.78 |
| VSAKRKLDFSDTM [V4K] | 5.12 |
| VSAVRKLDFNDTM [S10N] | 5.39 |

Further values, each from its own experiment
| Substance | target | test | system | setting | scale | quantity | result |
| --- | --- | --- | --- | --- | --- | --- | --- |
| PhoQ, residues 284 288 289 292 302 303 SSLVEF | PhoP, residues 12 14 15 18 19 IFFTR (Escherichia coli, UniProt P23836) | Sort-seq, item: YFP reporter | E. coli | PhoQ-PhoP variant library, together with: 10 µM Mg2+ | baseline: high Mg2+ state, higher = stronger signaling | fold induction | 8.97 |

For quick reference, copied from above (study 4):
| Sequence | 6-mer enrichment (R) |
| --- | --- |
| AUUAGU | 0.628 |
| AGCCAA | 0.711 |
| GCACCU | 0.714 |
| UACCGA | 0.632 |
| UUCAAC | 0.548 |
| CACCAU | 0.683 |
| UCAUCU | 0.524 |
| ACAUGA | 0.673 |
| ACCUCA | 0.594 |
| GAGCCG | 1.42 |
| GCUUAG | 0.838 |
